Assay results collected from several papers.
Numbered parts are unrelated; each lists some results of a single study.
Chain of UniProt P41143 (whole entry, looked up): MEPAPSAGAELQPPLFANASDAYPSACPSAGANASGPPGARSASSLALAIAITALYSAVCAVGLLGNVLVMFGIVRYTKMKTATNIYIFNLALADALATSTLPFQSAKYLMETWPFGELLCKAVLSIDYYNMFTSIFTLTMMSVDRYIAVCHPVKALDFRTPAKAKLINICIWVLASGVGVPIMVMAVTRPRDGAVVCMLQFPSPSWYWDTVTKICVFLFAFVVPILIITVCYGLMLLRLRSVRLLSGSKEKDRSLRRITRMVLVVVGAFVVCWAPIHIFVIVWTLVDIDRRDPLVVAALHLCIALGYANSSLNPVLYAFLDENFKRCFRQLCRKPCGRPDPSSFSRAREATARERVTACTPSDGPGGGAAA
Chain of UniProt P11229 (whole entry, looked up): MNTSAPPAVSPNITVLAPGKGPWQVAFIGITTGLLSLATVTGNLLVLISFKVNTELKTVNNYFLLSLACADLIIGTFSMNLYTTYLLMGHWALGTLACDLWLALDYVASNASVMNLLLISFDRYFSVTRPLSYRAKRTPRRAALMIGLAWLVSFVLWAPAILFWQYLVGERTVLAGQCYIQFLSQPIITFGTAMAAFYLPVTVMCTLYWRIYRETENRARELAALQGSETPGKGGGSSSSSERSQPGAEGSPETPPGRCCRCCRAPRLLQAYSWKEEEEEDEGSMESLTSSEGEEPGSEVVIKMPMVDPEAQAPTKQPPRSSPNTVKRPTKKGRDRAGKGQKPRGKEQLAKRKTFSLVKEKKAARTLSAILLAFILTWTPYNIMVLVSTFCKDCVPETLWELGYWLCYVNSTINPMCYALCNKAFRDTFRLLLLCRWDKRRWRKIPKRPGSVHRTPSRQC
Chain of UniProt P28335 (whole entry, looked up): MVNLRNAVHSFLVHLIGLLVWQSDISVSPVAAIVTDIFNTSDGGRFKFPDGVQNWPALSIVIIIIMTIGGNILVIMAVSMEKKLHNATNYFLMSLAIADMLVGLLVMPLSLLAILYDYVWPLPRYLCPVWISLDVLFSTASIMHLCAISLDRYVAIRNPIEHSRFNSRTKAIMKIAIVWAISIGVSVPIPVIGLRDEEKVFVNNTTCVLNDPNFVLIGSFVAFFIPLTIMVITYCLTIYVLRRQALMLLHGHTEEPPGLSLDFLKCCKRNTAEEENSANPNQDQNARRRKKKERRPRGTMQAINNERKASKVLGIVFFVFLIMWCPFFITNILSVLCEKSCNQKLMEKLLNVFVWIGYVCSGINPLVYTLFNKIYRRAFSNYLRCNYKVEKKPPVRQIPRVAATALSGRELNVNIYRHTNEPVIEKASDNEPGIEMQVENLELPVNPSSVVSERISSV

Sample 1
Cell line: HEK-293T-ACE2-TMPRSS2
Method: cell count
Tested at: 10 µM
Measurement: viability
SMILES = COC[C@@H]1CN(S(=O)(=O)c2ccccc2C)C[C@H]1c1nc(C)no1; result = 92%
SMILES = Cc1cc(Cl)c2c3c(c(=O)oc2c1)CCC3; result = 80%
SMILES = CCn1ncc(CN2CC(F)(F)C[C@H]2c2nc(C(=O)NC)no2)c1C; result = 92%
SMILES = O=C(c1csc2c1CCCC2)N1CCCC(CNS(=O)(=O)c2cccs2)C1 (stereo not drawn); result = 105%
SMILES = Cc1noc(C)c1CC(=O)N1CCC(CCC(=O)NCc2cccnc2)CC1; result = 101%
SMILES = CC(=O)NC(c1ccc(C)cc1)c1ccc2cccnc2c1O (stereo not drawn); result = 75%
SMILES = COCCc1nc2ccc(C(=O)N3CCCC3c3nc4ccc(C)cc4[nH]3)cc2o1 (stereo not drawn); result = 111%
SMILES = CCC(CC)C(=O)NCC(c1ccc(OC)cc1)N1CCCC1 (stereo not drawn); result = 69%
SMILES = O=C(NCCSc1ccc([N+](=O)[O-])c2onnc12)Oc1cccc(C(F)(F)F)c1; result = 70%
SMILES = Fc1ccccc1CN1CCCC(NCc2cccn2-c2nccs2)C1 (stereo not drawn); result = 83%
SMILES = c1ccc(-c2cnc3ccccc3c2)c(OCCn2ccnc2)c1; result = 110%
SMILES = Cc1noc2nc(C(F)(F)F)cc(C(F)(F)F)c12; result = 66%
SMILES = O=C(CC(c1ccccc1)c1ccccc1F)N1CCCC1 (stereo not drawn); result = 104%
SMILES = CSc1ccc(CN2CC[C@@H](N3CCN(c4ccccc4F)CC3)[C@H](O)C2)cc1; result = 95%

Sample 2
Cell line: HEK-293T/ACE2
Effect on: pseudovirus infection
Method: counter-screen
Organism: VSV pseudotyped with VSV-G
Tested at: 10 µM
Time: 16 h
Baseline: vehicle-treated
Measurement: GFP-positive cells
SMILES = Cc1cc(C)cc(OCC2CNC(=O)O2)c1 (stereo not drawn); result = 103%
SMILES = C=C1C[C@@H]2[C@H](CC[C@]3(C)C(=O)CC[C@@H]23)[C@@]2(C)C=CC(=O)C=C12; result = 111%
SMILES = Fc1ccc([C@@H]2CCNC[C@H]2COc2ccc3c(c2)OCO3)cc1; result = 112%
SMILES = C[C@]12CCC(=O)C=C1CC[C@@H]1[C@@H]2[C@@H](O)C[C@@]2(C)[C@H]1CC[C@]2(O)C(=O)CO; result = 110%
SMILES = Cn1c(=O)cc(N2CCC[C@@H](N)C2)n(Cc2ccccc2C#N)c1=O; result = 115%
SMILES = N#Cc1ccc(C(c2ccc(C#N)cc2)n2cncn2)cc1; result = 123%
SMILES = CCCc1nc2c(C)cc(-c3nc4ccccc4n3C)cc2n1Cc1ccc(-c2ccccc2C(=O)O)cc1; result = 98.4%
SMILES = CCOc1nc2cccc(C(=O)OC(C)OC(=O)OC3CCCCC3)c2n1Cc1ccc(-c2ccccc2-c2nnn[nH]2)cc1 (stereo not drawn); result = 3.44%
SMILES = CC1(C)O[C@@H]2C[C@H]3[C@@H]4C[C@H](F)C5=CC(=O)C=C[C@]5(C)[C@H]4[C@@H](O)C[C@]3(C)[C@]2(C(=O)CO)O1; result = 106%
SMILES = CN(C)C(=O)Oc1cccc([N+](C)(C)C)c1; result = 106%
SMILES = CCCCC[C@H](O)/C=C/[C@H]1[C@H](O)CC(=O)[C@@H]1CCCCCCC(=O)O; result = 110%
SMILES = Nc1c(CC(=O)O)cccc1C(=O)c1ccc(Br)cc1; result = 104%
SMILES = Cc1ccccc1N1C(=O)c2cc(S(N)(=O)=O)c(Cl)cc2NC1C (stereo not drawn); result = 118%
SMILES = CNC(=C[N+](=O)[O-])NCCSCc1csc(CN(C)C)n1; result = 109%
SMILES = C[C@@H](NCCCc1cccc(C(F)(F)F)c1)c1cccc2ccccc12; result = 131%
SMILES = CCN(C)C(=O)Oc1cccc([C@H](C)N(C)C)c1; result = 109%
SMILES = CCC(=O)O[C@]1(C(=O)CCl)[C@@H](C)C[C@H]2[C@@H]3CCC4=CC(=O)C=C[C@]4(C)[C@@]3(F)[C@@H](O)C[C@@]21C; result = 113%

Sample 3
Structure (SMILES): CO[C@@H](C)c1c(Nc2ccc([C@@H](N(C)C(=O)C3CCS(=O)(=O)CC3)C(F)(F)F)cc2)cnc2cc(Cl)nn12
Effect on: binding
Method: radioligand binding
Tested at: 10 µM
Measurement: inhibition
target = HTR2C (Homo sapiens, UniProt P28335); result = 3.25%
target = CHRM1 (Homo sapiens, UniProt P11229); result = -2.39%
target = OPRD1 (Homo sapiens, UniProt P41143); result = -31.4%

Sample 4
Target: Leukocyte tyrosine kinase receptor (LTK, Homo sapiens, UniProt P29376)
Chain of UniProt P29376 (whole entry, looked up): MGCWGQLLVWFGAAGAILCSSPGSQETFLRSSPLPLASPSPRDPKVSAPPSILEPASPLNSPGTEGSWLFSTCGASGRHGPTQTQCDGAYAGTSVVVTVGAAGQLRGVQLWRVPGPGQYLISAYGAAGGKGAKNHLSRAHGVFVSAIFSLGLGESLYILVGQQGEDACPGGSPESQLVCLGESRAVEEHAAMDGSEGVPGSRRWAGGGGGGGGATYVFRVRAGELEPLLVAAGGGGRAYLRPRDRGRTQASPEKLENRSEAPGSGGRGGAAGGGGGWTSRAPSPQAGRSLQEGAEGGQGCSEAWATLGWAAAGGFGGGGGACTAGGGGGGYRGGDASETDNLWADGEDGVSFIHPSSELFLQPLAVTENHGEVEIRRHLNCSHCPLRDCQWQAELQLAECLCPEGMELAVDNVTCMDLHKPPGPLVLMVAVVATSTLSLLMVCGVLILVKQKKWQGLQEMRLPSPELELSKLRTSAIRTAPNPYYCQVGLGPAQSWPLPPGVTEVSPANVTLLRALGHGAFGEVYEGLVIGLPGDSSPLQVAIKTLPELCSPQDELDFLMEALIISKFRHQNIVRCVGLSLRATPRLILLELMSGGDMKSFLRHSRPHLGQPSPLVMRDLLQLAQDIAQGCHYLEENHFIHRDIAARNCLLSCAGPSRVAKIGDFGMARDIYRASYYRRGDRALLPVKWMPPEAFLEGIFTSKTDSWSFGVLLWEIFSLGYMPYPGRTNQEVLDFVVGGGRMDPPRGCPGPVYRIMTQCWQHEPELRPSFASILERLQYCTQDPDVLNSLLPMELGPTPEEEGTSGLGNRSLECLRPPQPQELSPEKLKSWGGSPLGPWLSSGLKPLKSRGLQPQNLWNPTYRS
Effect on: enzyme activity
Mode: inhibitor
Method: radiometric
Tested at: 0.5 µM
Measurement: remaining activity
Compound = O=C1Nc2ccccc2/C1=C\c1c(Cl)[nH]c2ccccc12; result = 95.1%
Compound = O=C1NC(=O)c2c1c1c3ccccc3[nH]c1c1[nH]c3cc(Br)ccc3c21; result = 89.9%
Compound = CCCCc1c(-c2ccc(OC)cc2)[nH]c2nccnc12; result = 83.9%
Compound = N#Cc1cnc2cnc(NCc3cccnc3)cc2c1Nc1ccc(F)c(Cl)c1; result = 95.6%
Compound = O=C(c1cc2cc(O)ccc2[nH]1)c1cc2cc(O)ccc2[nH]1; result = 91.6%

Some of these lines once more (sample 3):
target = OPRD1 (Homo sapiens, UniProt P41143); result = -31.4%
target = HTR2C (Homo sapiens, UniProt P28335); result = 3.25%
target = CHRM1 (Homo sapiens, UniProt P11229); result = -2.39%
